Published values of several laboratories.
Parts stem from different laboratories: compare values within a part only. “And” joins repeats or separate records; there may be more than shown.
Chain of UniProt O75716 (whole entry, looked up): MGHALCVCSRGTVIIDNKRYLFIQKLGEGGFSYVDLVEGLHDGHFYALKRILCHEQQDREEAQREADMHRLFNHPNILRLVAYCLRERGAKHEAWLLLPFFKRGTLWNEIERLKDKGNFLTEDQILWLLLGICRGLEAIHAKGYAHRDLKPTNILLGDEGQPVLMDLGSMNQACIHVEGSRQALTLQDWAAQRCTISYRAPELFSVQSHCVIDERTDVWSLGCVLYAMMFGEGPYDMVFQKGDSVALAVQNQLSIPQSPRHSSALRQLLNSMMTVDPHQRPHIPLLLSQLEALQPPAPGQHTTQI
Chain of UniProt Q9H3Y6 (whole entry, looked up): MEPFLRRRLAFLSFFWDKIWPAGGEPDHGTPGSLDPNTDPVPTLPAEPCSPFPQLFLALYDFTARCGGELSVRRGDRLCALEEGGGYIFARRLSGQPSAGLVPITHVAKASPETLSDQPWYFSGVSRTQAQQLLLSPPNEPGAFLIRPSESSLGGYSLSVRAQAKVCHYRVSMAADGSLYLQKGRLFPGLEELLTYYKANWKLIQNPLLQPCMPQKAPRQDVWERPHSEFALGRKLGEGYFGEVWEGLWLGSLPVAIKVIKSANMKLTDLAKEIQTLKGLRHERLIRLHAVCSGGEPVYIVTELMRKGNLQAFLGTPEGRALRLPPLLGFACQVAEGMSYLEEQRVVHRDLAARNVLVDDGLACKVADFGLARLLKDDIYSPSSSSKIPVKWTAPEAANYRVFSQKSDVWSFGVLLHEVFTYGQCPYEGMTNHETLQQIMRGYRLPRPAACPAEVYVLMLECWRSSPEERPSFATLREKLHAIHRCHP
Chain of UniProt O43781 (whole entry, looked up): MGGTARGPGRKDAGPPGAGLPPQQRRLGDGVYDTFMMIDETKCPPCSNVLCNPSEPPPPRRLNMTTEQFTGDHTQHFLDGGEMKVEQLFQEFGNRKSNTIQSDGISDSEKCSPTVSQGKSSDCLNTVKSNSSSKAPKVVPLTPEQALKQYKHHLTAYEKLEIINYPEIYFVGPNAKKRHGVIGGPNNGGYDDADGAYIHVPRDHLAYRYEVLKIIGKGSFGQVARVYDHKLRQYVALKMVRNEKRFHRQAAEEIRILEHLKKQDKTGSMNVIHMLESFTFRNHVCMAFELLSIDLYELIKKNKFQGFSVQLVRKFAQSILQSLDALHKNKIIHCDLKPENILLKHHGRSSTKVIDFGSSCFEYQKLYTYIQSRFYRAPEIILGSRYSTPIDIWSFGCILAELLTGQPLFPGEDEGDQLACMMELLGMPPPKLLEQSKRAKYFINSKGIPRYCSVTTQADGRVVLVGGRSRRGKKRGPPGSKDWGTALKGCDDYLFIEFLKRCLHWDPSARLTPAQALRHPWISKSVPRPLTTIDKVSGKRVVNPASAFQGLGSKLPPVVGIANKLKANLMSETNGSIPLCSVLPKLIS

Study 1 — effect on: ligand displacement; tested at: 10 µM; quantity: inhibition
Target: Muscarinic acetylcholine receptor M1 (CHRM1, Homo sapiens, UniProt P11229)
Chain of UniProt P11229 (whole entry, looked up): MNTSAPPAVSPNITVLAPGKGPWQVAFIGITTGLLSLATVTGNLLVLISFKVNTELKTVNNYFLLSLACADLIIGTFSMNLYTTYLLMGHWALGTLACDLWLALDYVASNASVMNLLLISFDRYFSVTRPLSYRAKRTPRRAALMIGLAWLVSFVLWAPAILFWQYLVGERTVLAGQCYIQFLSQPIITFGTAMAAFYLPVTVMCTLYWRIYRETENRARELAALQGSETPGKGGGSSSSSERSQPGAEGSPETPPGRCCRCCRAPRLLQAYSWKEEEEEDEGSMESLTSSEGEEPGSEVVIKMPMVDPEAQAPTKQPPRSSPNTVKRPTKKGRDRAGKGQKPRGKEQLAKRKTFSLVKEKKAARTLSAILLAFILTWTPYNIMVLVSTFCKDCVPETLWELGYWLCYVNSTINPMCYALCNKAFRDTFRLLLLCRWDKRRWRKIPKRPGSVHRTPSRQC
CC1=C(C#N)C(c2ccc3[nH]nc(C)c3c2)C(C#N)=C(C)N1: 13.9%
COc1cccc(NC(=O)c2nc3scc(CN(C)Cc4ccccc4)c3c(=O)[nH]2)c1: -8.97%
NS(=O)(=O)c1cc(NC(=O)Cc2ccccc2)ccc1Oc1cccc(Cl)c1: 11.4%
Nc1cnc(N2CCc3cc(S(=O)(=O)Nc4c(F)cc(Cl)cc4F)cc(N4CCCC4=O)c32)nc1: -9.48%
CN1CCN(c2ccnc(NCCc3ccccc3)n2)CC1: 18.6%

Study 2 — effect on: enzyme activity; action: inhibitor; tested at: 0.5 µM; baseline: control; quantity: remaining activity
SMILES: COc1ccc2c(c[n+](C)c3c4cc5c(cc4ccc23)OCO5)c1OC
Serine/threonine-protein kinase 16 (STK16, Homo sapiens, UniProt O75716): 102%
Dual specificity tyrosine-phosphorylation-regulated kinase 3 (DYRK3, Homo sapiens, UniProt O43781): 101%
Tyrosine-protein kinase Srms (SRMS, Homo sapiens, UniProt Q9H3Y6): 86%

Study 3 — effect on: peptide-MHC binding; molecule type: peptide; tested at: concentration not given; quantity: binding
Target: HLA class I histocompatibility antigen, C alpha chain, allele C*04:01 (Homo sapiens, UniProt P10321)
YTIYGAWMF: inactive
KMFNRASYF: inactive
SMFERDFHF: inactive
VYWENEVSI: inactive
SEMGANFRA: inactive
KYLPNGDYI: inactive
YARNFLIPF: inactive
SYGCPTNPF: inactive

Single results of other studies
CC(C)(C)c1nc(-c2cccc(NS(=O)(=O)c3c(F)cccc3F)c2F)c(-c2ccnc(N)n2)s1  viability (L929; MEM 10% FBS; 25 µM): 55.2% and 48.6% and 50.1% and 55% and 58.9%
CC[C@H](C)c1nc2cc(Nc3ccnc4ccc(S(=O)(=O)C(C)C)cc34)ccc2s1.Cl  viability (HT-29; necroptosis protection, CCK-8; 1.25 µM, together with: TNF-α SMAC mimetic zVAD): 15.6% and 26.3% and 41.3% and 37.9% and 17.2%
CC(C)S(=O)(=O)c1ccc2nccc(Nc3ccc4sc(C5CCCC5)nc4c3)c2c1.Cl  viability (L929; CCK-8; 12.5 µM, together with: zVAD): 107% and 112% and 111%
N#Cc1c(Oc2ccc(F)c(NC(=O)Cc3cccc(C(F)(F)F)c3)c2)ccc2nc(NC(=O)C3CC3)sc12  viability (L929; necroptosis protection, CCK-8; 0.039 µM, together with: TNF-α-induced): 24.8%

A few entries again (study 1):
CC1=C(C#N)C(c2ccc3[nH]nc(C)c3c2)C(C#N)=C(C)N1: 13.9%
Nc1cnc(N2CCc3cc(S(=O)(=O)Nc4c(F)cc(Cl)cc4F)cc(N4CCCC4=O)c32)nc1: -9.48%
NS(=O)(=O)c1cc(NC(=O)Cc2ccccc2)ccc1Oc1cccc(Cl)c1: 11.4%
